# Published values pooled from the literature.
# A part holds a random share of what one study measured.

# Block 1
# Target: Myc proto-oncogene protein, bHLH-zipper, MAX partner unstated (MYC, Homo sapiens, UniProt P01106, residues 368-449)
# Sequence of UniProt P01106 (368-449, looked up): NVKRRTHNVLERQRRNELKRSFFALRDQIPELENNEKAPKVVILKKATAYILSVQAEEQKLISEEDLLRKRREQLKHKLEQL
# Technique: protein-binding microarray
# Molecule type: double-stranded DNA, one strand shown
# Sample: in vitro
# Tested at: not given
# Notes: k-mer, scored over probes, only values ≥0.25
# Reading: higher = stronger binding
Strand,E-score
ACGCCGTG,0.317
AACGTGTC,0.395
CGTGGCCC,0.395
AGTGCATG,0.323
CACACGCA,0.347
CCCCGTGC,0.372
ACATGCAT,0.385
ATGCATGA,0.328
ATGGCATG,0.358
AGACATGC,0.395
TACATGCA,0.26
CCGCACCC,0.254
GAGCACGA,0.333
CGCCCCGC,0.335
GTGCCGCA,0.302
AGTACCAC,0.293

# Block 2
# Target: Histone acetyltransferase KAT6A, winged helix 1, GST fusion (KAT6A, Homo sapiens, UniProt Q92794, residues 1-85)
# Technique: protein binding microarray
# Molecule type: double-stranded DNA, one strand shown
# Sample: in vitro
# Tested at: not given
# Notes: 8-mer, flanks averaged, mean of 2 arrays, mostly near background
# Reference: not given
# Reading: higher = stronger binding
# Residues (chain): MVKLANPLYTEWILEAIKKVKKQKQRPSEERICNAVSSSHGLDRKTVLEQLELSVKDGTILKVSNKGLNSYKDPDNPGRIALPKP
Strand,E-score
ATATTGAA,-0.212
ATGGGAAT,-0.184
AGGATGAA,-0.172
AAGTTTCA,-0.0188
ACATGGAG,-0.033
TAGCTTAA,-0.125
CCGATCCG,0.313
AGAGGAGC,-0.0683
GTGTTACA,-0.12
AGGCGTCC,0.0699
CGATTACA,-0.0228
CTGAGGAA,0.0299
CGGTGCTA,0.061
CAACTGTA,-0.126
GTCACGGA,0.337
CGACTTTA,-0.00993
AATTACTG,0.0251
CGCGACAA,0.3
ACGTATGA,-0.00698
GCTAGCGA,0.00918
ACCCGCCT,0.337
CTCGCGAC,0.29
CTATCAGC,-0.0228

# Block 3
# Target: Prothrombin, mature alpha-thrombin (F2, Homo sapiens, UniProt P00734)
# Technique: aptamer microarray, sandwich
# Molecule type: DNA with 2'F-ANA
# Sample: in vitro
# Tested at: 200 nM
# Notes: whole 15-mer aptamer, many near background
# Added: Cy3 exosite-II aptamer, 400 nM
# Reading: higher = stronger binding
# Strand: GGTTGGTGTGGTTGG
Modification,mean fluorescence intensity [a.u.]
2'F-ANA at 1 4 5 6 8 12 13 15,76.9
2'F-ANA at 2 3 4 5 6 7 9 10 11 12 13 14,53.5
2'F-ANA at 2 5 6 11 12 14 15,50.3
2'F-ANA at 3 7 9 10 11 12 13 15,545
2'F-ANA at 1 3 4 5 8 11 13 15,77.3
2'F-ANA at 1 2 5 6 7 8 10 11 12,52.2
2'F-ANA at 1 2 4 6 9 10 12 15,56.9
2'F-ANA at 1 4 8 9 10 11 14 15,46.1
2'F-ANA at 2 3 5 6 7 8 9 10 12 13,54.6
2'F-ANA at 2 3 4 5 7 9 11,75.8
2'F-ANA at 2 4 5 8 12 13,106
2'F-ANA at 1 2 3 7 10 13 14,52.2
2'F-ANA at 1 2 3 6 7 11 13,146
2'F-ANA at 2 3 8 10 13 15,321
2'F-ANA at 1 3 4 5 7 10 12 14 15,46.4
2'F-ANA at 4 5 6 7 8 10 13 14 15,48

# Block 4
# Target: Fragile X messenger ribonucleoprotein 1, C-terminal low-complexity region (Fmr1, Mus musculus, UniProt P35922)
# Technique: RNA Bind-n-Seq
# Molecule type: RNA
# Sample: in vitro
# Tested at: 200 nM
# Notes: whole 134-nt RNA, ends assumed
# Added: 150 mM KCl
# Reference: input library
# Reading: higher = stronger binding
# Shared flanks, not repeated: GGGAGUUCUACAGUCCGACGAUC … UGGAAUUCUCGGGUGUCAAGG
Strand,log2 enrichment
UAACUUUAGAGGAGUAUCUGAUGGAUAUGGCAGUGGACGUGGAUUUGGGGAUGGCUAUAAUGGGUAUGGAGGAGGACCUGGAGGUGGCAA,0.451
UCCUGUGCUACACAUCGUAUGUACCGAAUCGGGAAAAAAAGGGAAAAAGGGUUUUUGGGAAAGUAUUAUGUUACGCCGUUCGGAUCUGCA,-0.21
CCUGUGCUACACAUCGUAUGUACCGAAUCAAAUUUUUUUAAACCCCCAAACCCCCCCAAAAAAGUAUUAUGUUACGCCGUUCGGAUCUGC,-0.189
UCCUGUGCUACACAUCGUAUGUACCGAAUCGGGGAAAAAAGGAAAAAAGGGGAAAAAAGGAAAGUAUUAUGUUACGCCGUUCGGAUCUGC,-0.332
UCUUGUAUGACUUAACCCCUGUUUCUAAUACAGGGGCCGCUCUCCUCAGCCUCCUGCUGAAGAGGAUGAAGAUGACUUUGAUGAUACCCU,-0.125
AGUCCUGUGCUACACAUCGUAUGUACCGAAUCGGGGCCCCGGGCCCCGGCCCCGGGGAAAGUAUUAUGUUACGCCGUUCGGAUCUGCACU,-0.857
UGGGAGGUGGAUUUUUUUUAUUUUUUUAGCUCAUUUCCAGGGGUGGGAAUUUUUUUUUAAUAUGUGUCAUGAAUAAAGUUGUUUUUGAAA,0.437
ACCAUGCAGGUGGGCAUCUUUGGGAAGUGGGGCAAGGGGGAAAUAGGGAGGGGGGUAACACUUUGGGAACAGGUGGUCCCAGGUCGUUUC,0.709
GCAGGAAGUAAAAACAAAUGGAAAUGCUUCGGAUAGUGGCAGGGGUAAAGGUUGCUAAGGAAAGGGUGGGAUGGGAGUGGGUAAAGAGUU,0.436
UGAACCUUCCAAUAGCAACCAAGAAAUAAACUCUGAUGACAGACGACCCCAAUGGAGACGAGAAGACCGAAUUCCUUACCAAGACAGAGA,0.402
ACCAUGCAGGUGGGCAUCUUUGGGAAGUGGGGCAAGGGGGGGAUAGGGAGGGGGUUAACACUUUGGGAACAGGUGGUCCCAGGUCGUUUC,0.94
AAGUCCUGUGCUACACAUCGUAUGUACCGAAUCGGUUUUUGGAAAAAGGAAAAAGGAAAGUAUUAUGUUACGCCGUUCGGAUCUGCACUU,-0.852
GCAGGAAGUAAAAACAAAUGGAAAUGCUUCGGAUAGUGGCAGGGGUGGGGGUUUCUAAGGAAAGGGUGGGAUGGGAGUGGGUAAAGAGUU,0.641
UGCCCAGCUCAUGCUGGACCACCUGAAGAACAGUGCUCCCAGCAAGCGAGAGAUUGCCCAGCUCAAGAACCAGGUAUCCACAGAGAGCAC,-0.904

# Block 5
# Target: TAR DNA-binding protein 43, full length, His tag (TARDBP, Homo sapiens, UniProt Q13148, residues 1-414)
# Technique: RNA Bind-n-Seq
# Molecule type: RNA
# Sample: in vitro
# Tested at: 20 nM
# Notes: 6-mer, flanks averaged, single round
# Added: 150 mM LiCl
# Reference: input library
# Reading: higher = stronger binding
Strand,6-mer enrichment (R)
ACUCGU,0.818
CUUGGG,1.1
AACGAU,0.783
GCCAGG,1.02
UACGAA,0.843
UGAGCC,0.982
GCAGCC,0.965
UUGGUA,1.11
UACUCG,0.801
UCUCUA,0.876
UGAGCA,0.955
CUUGCA,0.934
UCAAGG,0.855
UGGCAA,0.93
AACAGG,0.891
UCACAA,0.834
CUAUGG,0.936
GUCAUU,0.97
AGCCAG,0.913
AGGGAU,1
GAACCA,0.873
GUGCAU,1.12
CCGAUU,0.865
CACCCU,1.05
ACUAUC,0.833

# Block 6
# Target: RNA binding protein fox-1 homolog 2, RRM domain, GST-SBP tag (RBFOX2, Homo sapiens, UniProt O43251-10, residues 100-194)
# Technique: RNA Bind-n-Seq
# Molecule type: RNA
# Sample: in vitro
# Tested at: 365 nM
# Notes: natural RNA segment, single round, ends assumed
# Reference: no-protein control
# Reading: higher = stronger binding
# Shared flanks, not repeated: GGGAGUUCUACAGUCCGACGAUC … UGGAAUUCUCGGGUGCCAA
# Residues (chain): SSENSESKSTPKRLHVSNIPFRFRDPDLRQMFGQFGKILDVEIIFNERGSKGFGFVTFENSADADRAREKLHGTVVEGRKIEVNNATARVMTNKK
Strand,RBNS enrichment (R)
AGGUAAAGAAACAUCGUUGAGUAGCCUACCUUGAUUUCUGUCAAGUUCAUAACCAGCUUCAUAUUUUAAAGGCUUCAGGUUUGAAAUUAAGUCAACUGCAUGCAGCUUUG,10.9
UAGUUUUAUUGAUUACACUGAUUUAUUCUACCCUAUUUUAUAAUGCAGGACUUUUGUAAUGUUGUCUAAAUGAGGAAACAUUUCUGUCAAAUUAGCCUAGUGAAAUCUCU,0.323
AUAAUUUAUACAUAAAAUGUCUGGUUGACUGUACACCUUGUUUUUUUGAAGAAAUUUAUUCGUGAAAGGAAGAGCAGUUGUUAUUUAUUGUGAGGUCUCUUGCUUGUAAA,0.582
GGGAGUGAGUCAGUGUCUGGGAGUGGGGUAGGCAGCUUCCAUUAGGGUCCUUUUCCUUCACCAGCAGUGGGAUAUUCGGAACAGAACCUCCUGCUUUCUGCCCAAGAGUG,0.314
CUGGAACUGUUGGACACAGUUGAAAGUGUGGUGGGGAAACCAUACAAUUGUUUUUACAGUUUUAGCCAAGUUUCUGUGAAUGCUAGAGAUUUAUACUUGAUUAUUUGUAU,5.67
UCAGCCUCUGGGAAACCACAGCAGUGAUGCCAGCUGGGCACGUCAGGACCUCCCCACACACCCACACGAUGCCACAGGUCAGGGGGCUGUGCCUGACUAGGGAGCCCUCC,0.246
ACAAAACCAUAUCAGUGUACUGUAGCCCCUUAAUUUAAGCUUUCUAGAAAGCUUUGGAAGUUUUUGUAGAUAGUAGAAAGGGGGGCAUCACCUGAGAAAGAGCUGAUUUU,0.69
AAUUCAAGCCAUGCCAGGAAUCUGCCUACCUGCCAGGUUCAGUUCUUUUAAGGUGCCUCUUCAGGGACACAGUGUGUCUCUCUGAUUGGGCUUCUAAAUCAAAAGCCUGA,0.418
UUGAUCACAGUUUAUAAGAAAGAACAAAUCAAGAUUGGCAAUCCUUGCCGAUCUUUUAGAAAUACCUUUUCUGGAGAAAAAAAAAUCCACAUGAAGUGCAAUAAGCUUAU,0.403
UAGUCUGUGUCCUGUGUGGAACUGUAAGGAUGGAGCUGCCCCUGAUAGGCUCUGUGGAGUUGGCUUGCAUUUGGAUUUCUCUCUUCUAAGGUACAUGUUAAACCUUCCUC,1.11
UUGGCAGAACAUCCGUCAGUACCUCAUGAAGGCUGGCUGCCUUUGUCUUUGAGAUAGACAUUGGAGCAGACGGACUCUGGAAAGUGCUUCUGUGGCUGUGGUCUGUCCUG,0.502
GCCCAUCUGUAUGCUGGUAGCUAGUGAUUUACACAGGUUUAGUUGACUAAUGAGGCAUUACAAAUAAUAUUACUCUAUGAUGAUUGCUUCCACCCACACGACUGCAACAU,0.861

# A few entries again (block 6):
Strand,RBNS enrichment (R)
AGGUAAAGAAACAUCGUUGAGUAGCCUACCUUGAUUUCUGUCAAGUUCAUAACCAGCUUCAUAUUUUAAAGGCUUCAGGUUUGAAAUUAAGUCAACUGCAUGCAGCUUUG,10.9
UAGUUUUAUUGAUUACACUGAUUUAUUCUACCCUAUUUUAUAAUGCAGGACUUUUGUAAUGUUGUCUAAAUGAGGAAACAUUUCUGUCAAAUUAGCCUAGUGAAAUCUCU,0.323
AUAAUUUAUACAUAAAAUGUCUGGUUGACUGUACACCUUGUUUUUUUGAAGAAAUUUAUUCGUGAAAGGAAGAGCAGUUGUUAUUUAUUGUGAGGUCUCUUGCUUGUAAA,0.582
GGGAGUGAGUCAGUGUCUGGGAGUGGGGUAGGCAGCUUCCAUUAGGGUCCUUUUCCUUCACCAGCAGUGGGAUAUUCGGAACAGAACCUCCUGCUUUCUGCCCAAGAGUG,0.314
CUGGAACUGUUGGACACAGUUGAAAGUGUGGUGGGGAAACCAUACAAUUGUUUUUACAGUUUUAGCCAAGUUUCUGUGAAUGCUAGAGAUUUAUACUUGAUUAUUUGUAU,5.67
UCAGCCUCUGGGAAACCACAGCAGUGAUGCCAGCUGGGCACGUCAGGACCUCCCCACACACCCACACGAUGCCACAGGUCAGGGGGCUGUGCCUGACUAGGGAGCCCUCC,0.246
ACAAAACCAUAUCAGUGUACUGUAGCCCCUUAAUUUAAGCUUUCUAGAAAGCUUUGGAAGUUUUUGUAGAUAGUAGAAAGGGGGGCAUCACCUGAGAAAGAGCUGAUUUU,0.69
AAUUCAAGCCAUGCCAGGAAUCUGCCUACCUGCCAGGUUCAGUUCUUUUAAGGUGCCUCUUCAGGGACACAGUGUGUCUCUCUGAUUGGGCUUCUAAAUCAAAAGCCUGA,0.418
UUGAUCACAGUUUAUAAGAAAGAACAAAUCAAGAUUGGCAAUCCUUGCCGAUCUUUUAGAAAUACCUUUUCUGGAGAAAAAAAAAUCCACAUGAAGUGCAAUAAGCUUAU,0.403
UAGUCUGUGUCCUGUGUGGAACUGUAAGGAUGGAGCUGCCCCUGAUAGGCUCUGUGGAGUUGGCUUGCAUUUGGAUUUCUCUCUUCUAAGGUACAUGUUAAACCUUCCUC,1.11
UUGGCAGAACAUCCGUCAGUACCUCAUGAAGGCUGGCUGCCUUUGUCUUUGAGAUAGACAUUGGAGCAGACGGACUCUGGAAAGUGCUUCUGUGGCUGUGGUCUGUCCUG,0.502
GCCCAUCUGUAUGCUGGUAGCUAGUGAUUUACACAGGUUUAGUUGACUAAUGAGGCAUUACAAAUAAUAUUACUCUAUGAUGAUUGCUUCCACCCACACGACUGCAACAU,0.861
